Assay results gathered from unrelated publications.
Every numbered part comes from another study and shows a few of its results, in no order.
Chain of UniProt Q8LAL2 (whole entry, looked up): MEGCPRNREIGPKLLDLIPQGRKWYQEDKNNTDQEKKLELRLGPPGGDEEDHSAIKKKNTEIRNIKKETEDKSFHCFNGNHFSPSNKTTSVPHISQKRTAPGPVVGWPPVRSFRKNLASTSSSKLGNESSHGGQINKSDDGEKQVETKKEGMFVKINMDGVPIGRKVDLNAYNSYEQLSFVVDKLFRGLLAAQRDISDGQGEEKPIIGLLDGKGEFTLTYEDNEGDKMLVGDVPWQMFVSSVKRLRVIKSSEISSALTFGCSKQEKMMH
Chain of UniProt Q8H174 (whole entry, looked up): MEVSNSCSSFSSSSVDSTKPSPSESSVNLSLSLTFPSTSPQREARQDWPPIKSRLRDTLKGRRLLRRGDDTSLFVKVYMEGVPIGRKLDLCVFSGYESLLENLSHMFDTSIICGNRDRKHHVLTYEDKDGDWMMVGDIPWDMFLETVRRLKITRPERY
Chain of UniProt O23661 (whole entry, looked up): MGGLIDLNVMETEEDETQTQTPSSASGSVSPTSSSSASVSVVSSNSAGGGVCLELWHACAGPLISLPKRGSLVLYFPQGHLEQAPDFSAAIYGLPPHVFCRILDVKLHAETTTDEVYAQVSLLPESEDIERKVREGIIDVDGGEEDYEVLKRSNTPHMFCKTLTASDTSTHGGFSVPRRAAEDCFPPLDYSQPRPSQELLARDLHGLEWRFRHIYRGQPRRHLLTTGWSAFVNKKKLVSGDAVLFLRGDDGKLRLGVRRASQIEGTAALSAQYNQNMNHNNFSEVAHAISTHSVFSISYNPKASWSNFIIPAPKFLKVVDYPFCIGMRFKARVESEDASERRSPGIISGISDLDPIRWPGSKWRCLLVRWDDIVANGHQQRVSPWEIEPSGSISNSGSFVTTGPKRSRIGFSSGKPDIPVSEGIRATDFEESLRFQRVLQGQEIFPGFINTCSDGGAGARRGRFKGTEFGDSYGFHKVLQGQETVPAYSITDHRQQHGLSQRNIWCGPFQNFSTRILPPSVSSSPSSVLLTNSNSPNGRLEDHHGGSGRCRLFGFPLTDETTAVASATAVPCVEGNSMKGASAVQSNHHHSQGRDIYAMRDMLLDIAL
Chain of UniProt Q93WC4 (whole entry, looked up): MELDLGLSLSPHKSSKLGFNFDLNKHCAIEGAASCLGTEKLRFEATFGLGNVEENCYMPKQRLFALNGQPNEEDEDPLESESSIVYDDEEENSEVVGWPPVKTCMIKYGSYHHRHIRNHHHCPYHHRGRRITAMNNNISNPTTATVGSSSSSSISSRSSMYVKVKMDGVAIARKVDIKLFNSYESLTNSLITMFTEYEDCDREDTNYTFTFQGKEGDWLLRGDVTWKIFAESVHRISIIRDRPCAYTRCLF
Chain of UniProt O24410 (whole entry, looked up): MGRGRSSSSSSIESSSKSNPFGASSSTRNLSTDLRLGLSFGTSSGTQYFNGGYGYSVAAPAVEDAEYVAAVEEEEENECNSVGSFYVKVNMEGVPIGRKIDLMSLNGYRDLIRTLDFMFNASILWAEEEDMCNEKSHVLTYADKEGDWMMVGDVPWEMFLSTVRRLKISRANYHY

Sample 1 — method: RNA Bind-n-Seq; form: RNA; sample: in vitro; tested at: 365 nM; relative to: no-protein control; direction: higher = stronger binding
Target: RNA binding protein fox-1 homolog 2, RRM domain, GST-SBP tag (RBFOX2, Homo sapiens, UniProt O43251-10, residues 100-194)
Notes: natural RNA segment, single round, ends assumed
Residues (chain): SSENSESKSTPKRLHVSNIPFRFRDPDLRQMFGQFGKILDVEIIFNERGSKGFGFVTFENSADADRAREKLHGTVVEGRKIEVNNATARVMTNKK
Oligonucleotide | RBNS enrichment (R)
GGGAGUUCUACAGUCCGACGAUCCAUGCUCUUUGCUUCUGUCUAUGUGGAAAUCUCCGUUUGCAGCCAAAAUCUGGGGGCUGCCACUGUACUUAACAUCUUCAUUUGAAGCCUUUCAGAUUUCCAUAAAGCCAUGGAAUUCUCGGGUGCCAA | 0.441
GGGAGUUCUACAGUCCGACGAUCGAGCAACUGGCUCCUGGCAGCUGUGCUUGUCCGUUUCCUGUCAGAGUGAUCCCAGGUUUCCUCCUGGCCCGUCCCAUGGUCCCUCCACAGGAGUGUGAGAGGAUGGGGGAUGGAAUUCUCGGGUGCCAA | 0.21
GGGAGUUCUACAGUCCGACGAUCCCCCCCAAAAUUCAUGUGUUGGAGCCUUAACCCUCAAUGUGAUGGUAUUUGAGAUGGGGCCUUUGGUAAGGGAAGUUUAGAUGAGGUCACGAGGGUAGGACCCUCAUGAUUGGAAUUCUCGGGUGCCAA | 0.762
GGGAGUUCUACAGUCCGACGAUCGCCCCUCCGCUGUCCCACCCUGGGCCUGGGACACGGGCCUGGGGCAGUGUGUGUCUGCUGGUCAUGUGCUGGUGCCAGUUGGGGAGGAAUCAGCUGUCUCGGUGGAUUCUUGGAAUUCUCGGGUGCCAA | 0.467
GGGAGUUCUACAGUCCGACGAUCCACACAAAAAAAAUGCAGACAUCCUUGUGAAUUUUGAGUGCUUAUGGGGUCAUCUGGUUAUUUAGGGCAUUGAGACUGGAGCCGUGGCUCAGAUGAUUGGGGCAGAAAAGUGGAAUUCUCGGGUGCCAA | 1.49
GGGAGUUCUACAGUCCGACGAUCGUCAUGCAUUGUUCCAUAGUCGCCCUCAUGGGGUCAUUUCAUGCCUCCAGGCGGGGCCCGGAAGUAGUAGUAGUAGUAGUAGUAGUAGUAGUAGUAGUAGUAGUAGUAGUUGGAAUUCUCGGGUGCCAA | 0.964
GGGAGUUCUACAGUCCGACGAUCAUUUGGGUUUCUGAAGUACAAGUAUUGAGCAACAUGAAGGGCAGUGUUGCCCAGCUCAGGGUGUCUGCUUGGUGGCUCUAACCCCUGCCCAUCCAGUUGUUUCUGGGCUGUGGAAUUCUCGGGUGCCAA | 0.54
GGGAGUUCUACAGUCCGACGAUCAAGGAAUUAUGGGUGGGUAUUUUUUUAAUUGAACUCAUUUUUCGGUUGUCUGACCAUAACAUGAUUUUUUUCUAAGAUGAAAUCCACAGAAGUUCUUAACUGUUAAAAAGUGGAAUUCUCGGGUGCCAA | 0.304

Sample 2 — method: universal PBM; form: double-stranded DNA, one strand shown; sample: in vitro; tested at: 600 nM; direction: higher = stronger binding
Target: Sal-like protein 4, full length isoform A (SALL4, Homo sapiens, UniProt Q9UJQ4, residues 1-1053)
Chain of UniProt Q9UJQ4 (whole entry, looked up): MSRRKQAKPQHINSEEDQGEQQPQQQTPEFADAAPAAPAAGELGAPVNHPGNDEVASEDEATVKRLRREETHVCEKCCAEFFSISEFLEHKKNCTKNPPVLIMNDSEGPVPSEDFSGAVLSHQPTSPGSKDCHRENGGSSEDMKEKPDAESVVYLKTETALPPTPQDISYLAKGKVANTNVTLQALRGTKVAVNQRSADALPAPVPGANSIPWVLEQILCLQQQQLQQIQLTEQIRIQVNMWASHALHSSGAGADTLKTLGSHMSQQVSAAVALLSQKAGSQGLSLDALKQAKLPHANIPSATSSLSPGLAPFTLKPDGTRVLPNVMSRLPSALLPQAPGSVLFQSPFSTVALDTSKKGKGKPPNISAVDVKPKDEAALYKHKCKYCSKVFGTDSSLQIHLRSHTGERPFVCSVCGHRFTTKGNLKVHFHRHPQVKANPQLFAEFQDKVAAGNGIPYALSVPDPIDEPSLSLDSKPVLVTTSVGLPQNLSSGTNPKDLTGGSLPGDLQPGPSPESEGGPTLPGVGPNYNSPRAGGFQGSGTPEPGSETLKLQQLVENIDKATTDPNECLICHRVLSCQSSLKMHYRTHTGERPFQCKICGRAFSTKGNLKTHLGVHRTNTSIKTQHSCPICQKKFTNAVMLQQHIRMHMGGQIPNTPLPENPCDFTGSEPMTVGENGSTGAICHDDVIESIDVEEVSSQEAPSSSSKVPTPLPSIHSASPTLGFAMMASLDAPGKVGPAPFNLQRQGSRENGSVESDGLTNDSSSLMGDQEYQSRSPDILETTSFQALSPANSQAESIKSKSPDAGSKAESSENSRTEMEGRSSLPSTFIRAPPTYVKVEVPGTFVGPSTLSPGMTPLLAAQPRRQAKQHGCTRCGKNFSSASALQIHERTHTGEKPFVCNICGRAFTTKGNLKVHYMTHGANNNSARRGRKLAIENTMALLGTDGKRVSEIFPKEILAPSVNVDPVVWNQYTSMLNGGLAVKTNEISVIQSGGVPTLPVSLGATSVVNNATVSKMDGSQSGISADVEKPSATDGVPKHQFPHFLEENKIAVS
Notes: 8-mer, flanks averaged, mean of replicates
Oligonucleotide | E-score
GCGAAAGA | -0.0449
GAAAAGCC | -0.188
GCGCGACC | -0.255
GGAGAACC | -0.169
GACGCTAC | -0.107
GTAGTGAC | -0.0971
CTGCCGGA | -0.165
CTATCCAA | 0.0539
AGATATCG | 0.0339
AGAGACCC | -0.213
AAAAGTGT | 0.0396
GAACCCTC | -0.314
GGATTCAC | -0.0149
CATACATC | 0.189
GAGATCGA | 0.0293
CCCCATGA | -0.0735
ACAGACGC | -0.134
CACAAGTA | 0.133
ATACTACC | 0.0598
TGTTAAAA | 0.295
CGTTACCC | -0.24
AGCACATC | -0.0586

Sample 3 — Molecule: B1 (IAA17); method: two-hybrid; direction: higher = firmer interaction
B1: IAA17 (Arabidopsis thaliana, UniProt P93830); chain MMGSVELNLRETELCLGLPGGDTVAPVTGNKRGFSETVDLKLNLNNEPANKEGSTTHDVVTFDSKEKSACPKDPAKPPAKAQVVGWPPVRSYRKNVMVSCQKSSGGPEAAAFVKVSMDGAPYLRKIDLRMYKSYDELSNALSNMFSSFTMGKHGGEEGMIDFMNERKLMDLVNSWDYVPSYEDKDGDWMLVGDVPWPMFVDTCKRLRLMKGSDAIGLAPRAMEKCKSRA
partner | setting | scale | positive tests
IAA26 (Arabidopsis thaliana, UniProt Q8LAL2) |  | relative to: out of 4 tests | 3
IAA31 (Arabidopsis thaliana, UniProt Q8H174) |  | relative to: out of 4 tests | 4
IAA20 (Arabidopsis thaliana, UniProt O24410) | weak activation fusion | relative to: out of 4 tests | 2
IAA29 (Arabidopsis thaliana, UniProt Q93WC4) |  | relative to: out of 4 tests | 2
ETT (Arabidopsis thaliana, UniProt O23661) |  | relative to: out of 2 tests | 0

Sample 4 — method: protein binding microarray; form: double-stranded DNA, one strand shown; sample: in vitro; tested at: not given; relative to: not given; direction: higher = stronger binding
Target: Histone acetyltransferase KAT6A, winged helix 1, GST fusion (KAT6A, Homo sapiens, UniProt Q92794, residues 1-85)
Notes: 8-mer, flanks averaged, mean of 2 arrays, mostly near background
Residues (chain): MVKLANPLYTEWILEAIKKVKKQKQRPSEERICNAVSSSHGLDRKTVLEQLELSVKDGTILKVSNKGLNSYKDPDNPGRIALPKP
Oligonucleotide | E-score
AATGCGTA | 0.262
ATTCGATA | -0.0587
GTGGCATA | -0.113
GACTCCTC | -0.162
GACGCGTC | 0.378
ATATCCAC | -0.0874
AGTTTCCG | 0.15
AGAATATC | -0.0873
AAGCCAAT | -0.123
AACCGCTT | 0.16
GGATGTAA | 0.0318
CTCAAGAC | -0.105
ATCACCGG | 0.0964
CCCCGGTA | 0.226
GATCCTAA | -0.0729
CCAGTATA | -0.152
GATAGCAC | -0.0263
ACATAGCA | -0.139
TCAGCTAA | -0.231
ATCACGTA | -0.0596
CACGTTCC | -0.124
ATGAAGCC | 0.141
GCTAAGAC | 0.00364
